# Experimental data gathered from unrelated publications.
# Each line is one published result; not all experiments were run side by side. “And” joins repeats or separate records; there may be more than shown.
SMILES,target,test,system,conditions,how to read,quantity,value
Fc1ccc(Nc2nc(NC3CCCCC3)c3cc(Br)ccc3n2)cc1F,β2AR/β1AR ECL2 chimera,"β-arrestin2 recruitment, antagonist, BRET",,added: isoprenaline 1 µM,,pIC50,6.4
c1ccc(-c2n[nH]cc2-c2ccnc3ccccc23)nc1,SKY1 (Candida albicans),"kinase binding, MIB/MS competition",Candida albicans lysate,1 µM,baseline: DMSO,log2 fold change,0.43
Cc1cn(CC(=O)N(CC(=O)N[C@H]2CCC[C@@H]2N(CC(=O)N[C@H]2COC[C@@H]2N(CC(=O)N[C@H]2COC[C@@H]2N(CC(=O)N[C@H]2COC[C@@H]2N(CC(=O)NCCOCCOCC(N)=O)C(=O)Cn2cnc3c(N)ncnc32)C(=O)Cn2cc(C)c(=O)[nH]c2=O)C(=O)Cn2cnc3c(N)ncnc32)C(=O)Cn2cnc3c(=O)[nH]c(N)nc32)[C@H]2CCC[C@@H]2NC(=O)CN(C(=O)Cn2cnc3c(=O)[nH]c(N)nc32)[C@H]2CCC[C@@H]2NC(=O)CN(C(=O)Cn2cc(C)c(=O)[nH]c2=O)[C@H]2COC[C@@H]2NC(=O)CN(C(=O)Cn2cnc3c(N)ncnc32)[C@H]2COC[C@@H]2NC(=O)CN(C(=O)Cn2cnc3c(=O)[nH]c(N)nc32)[C@H]2COC[C@@H]2N)c(=O)[nH]c1=O,mismatched DNA TC,"duplex formation, UV melting",,,baseline: complementary DNA,ΔTm,-27.4 °C
Fc1ccc(Nc2nc(NC3CCCCC3)c3cc(C(F)(F)F)ccc3n2)cc1F,β2AR/β1AR TM7 chimera,"β-arrestin2 recruitment, antagonist, BRET",,added: isoprenaline 1 µM,,pIC50,6.7
C=CC(=O)N1[C@H](c2ccc3c(c2)OCO3)c2[nH]c3ccccc3c2C[C@@H]1C(=O)NC1CC1,FAM213A Cys85 human,"cysteine IA-DTB labelling, covalent inhibitor, MS-ABPP",22Rv1,"20 µM, 3 h",,inhibition,20% and 38%
CC(=O)c1cnc(N)nc1N1CC[C@H]1c1nn2ccc(Cl)c2c(=O)n1-c1ccccc1,PI3Kδ,KiNativ,monkey white blood cell lysate,1 µM,,binding,> 90%
Fc1ccc(Nc2nc(NC3CCCCC3)c3ccccc3n2)cc1F,β2AR/β1AR TM7 chimera,"β-arrestin2 recruitment, antagonist, BRET",,added: isoprenaline 1 µM,,pIC50,5.9
C=CC(=O)N1[C@H](c2ccc3c(c2)OCO3)c2[nH]c3ccccc3c2C[C@@H]1C(=O)N1CCN(C)CC1,human cyclin E1 N112C-3xFLAG:CDK2,"co-IP with TMT proteomics, measured: PRPF19",,"concentration not given, Q9UMS4",baseline: wild type DMSO,relative co-enrichment,122%
C[n+]1cc(NC(=O)c2ccc3ccc4ccc(C(=O)Nc5cc6ccccc6[n+](C)c5)nc4c3n2)cc2ccccc21,hairpin duplex DNA,UV melting,,"1 molar equivalents, DNA 3 µM",,ΔTm,0.4 °C
O=C(C1CCc2ccccc2CC1)N1Cc2cccnc2Nc2ccc(N3CCOCC3)cc21,IDH1 R132H human,"2-HG production, RapidFire mass spectrometry",MOG-G-UVW overexpressing IDH1 R132H,,,IC50,0.066 µM
C=CC(=O)Nc1cccc(Cn2ncc3cnc(Nc4cnn(CCOC)c4)nc32)c1,RIPK4 human,"binding, KINOMEscan",,100 nM,lower = stronger binding,percent of control,87%
Nc1ncc(-c2cc(-c3cnn(CC(F)(F)F)c3)ncc2F)nc1C(=O)NC1CNCC(F)C1 (centres unmarked),ACVR2B,KINOMEscan,,1 µM,baseline: DMSO control,remaining binding,84%
C[n+]1ccc(/C=N/NC(=O)c2cncc(C(=O)N/N=C/c3cc[n+](C)c4ccccc34)n2)c2ccccc21,hairpin duplex DNA,UV melting,,"2 molar equivalents, DNA 3 µM",,ΔTm,0 °C
C#CC(C)(C)C(=O)SCCOP1(=O)OCC2OC(n3cnc4c(N)ncnc43)CC2OP(=O)(OCCSC(=O)C(C)(C)C#C)OCC2OC(n3cnc4c(N)ncnc43)CC2O1 (centres unmarked),STING pathway (human),"IRF reporter gene, agonist, Lucia luciferase reporter",THP1-Lucia,8 h,,EC50,0.056 µM

# Repeated from above:
SMILES,target,test,system,conditions,how to read,quantity,value
O=C(C1CCc2ccccc2CC1)N1Cc2cccnc2Nc2ccc(N3CCOCC3)cc21,IDH1 R132H human,"2-HG production, RapidFire mass spectrometry",MOG-G-UVW overexpressing IDH1 R132H,,,IC50,0.066 µM
